Measured values of several laboratories.
Every numbered part comes from another study and shows a few of its results, in no order. Changes are numbered by the printed parent chain.

Study 1 — method: protein binding microarray; molecule type: double-stranded DNA, one strand shown; medium: in vitro; tested at: not given; reference: not given; direction: higher = stronger binding
Target: Histone acetyltransferase KAT6A, winged helix 1, GST fusion (KAT6A, Homo sapiens, UniProt Q92794, residues 1-85)
Notes: 8-mer, flanks averaged, mean of 2 arrays, mostly near background
Residues (chain): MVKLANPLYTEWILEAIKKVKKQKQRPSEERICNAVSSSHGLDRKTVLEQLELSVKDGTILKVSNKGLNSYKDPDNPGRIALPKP
| Sequence | E-score |
| --- | --- |
| CGGTAGGA | 0.0888 |
| GGGGACTA | -0.0302 |
| GACGTTGA | -0.127 |
| AAGTACTA | -0.0217 |
| CTAAATCC | -0.0815 |
| ACTGACCT | -0.211 |
| GCCATTAC | 0.128 |
| AACTTGTA | 0.0802 |
| CTTGTGCC | -0.14 |
| AGCGGTGG | 0.233 |
| AAACTGTT | -0.0896 |
| CGGCCATA | 0.167 |
| ACCGAAAA | -0.25 |

Study 2 — target: CCNA1, cyclin fold, Cln2 fusion (human); method: yeast growth competition, sequencing; medium: yeast; notes: weak parent motif; reference: not given; direction: higher = stronger binding
Starting sequence: ORC1 docking peptide (human); PRARKRLELGNLG
| Change | normalised enrichment score |
| --- | --- |
| PRARFRLELGNLG [K5F] | 0.309 |
| PRARKFLELGNLG [R6F] | 0.385 |
| PRIRKRLELGNLG [A3I] | 0.00995 |
| PNARKRLELGNLG [R2N] | 0.336 |
| PRARKILELGNLG [R6I] | 0.602 |
| PRARKRIELGNLG [L7I] | 0.509 |
| PRARKRLEAGNLG [L9A] | 0.485 |
| GRARKRLELGNLG [P1G] | 0.191 |
| PRARKRLELGNVG [L12V] | 0.732 |
| PRARKRLELQNLG [G10Q] | 0.377 |

Further values, each from its own experiment
| Molecule | tested on | assay | system | setting | how to read | measurement | result |
| --- | --- | --- | --- | --- | --- | --- | --- |
| EIF4G3 (Homo sapiens, UniProt O43432) | EIF4A1 (Homo sapiens, UniProt P60842) | cross-linking MS | – | hits only | – | interaction screen | cross-linked |
| PhoQ, residues 284 288 289 292 302 303 NLCILV | PhoP, residues 12 14 15 18 19 LYFRQ (Escherichia coli, UniProt P23836) | Sort-seq, item: YFP reporter | E. coli | PhoQ-PhoP variant library, together with: 10 µM Mg2+ | reference: high Mg2+ state, higher = stronger signaling | fold induction | 7.95 |
| SEH1L (Homo sapiens, UniProt Q96EE3) | NUP88 (Homo sapiens, UniProt Q99567) | cross-linking MS | cell fractions | together with: DSSO | – | cross-linked residues | K243 to K680 |
| YWHAE (Homo sapiens, UniProt P62258) | FOXC1 (Homo sapiens, UniProt Q12948) | cross-linking MS | cell fractions | together with: DSSO | – | cross-linked residues | K125 to T88 |

For quick reference, copied from above (study 1):
| Sequence | E-score |
| --- | --- |
| AAACTGTT | -0.0896 |
| GACGTTGA | -0.127 |
| ACCGAAAA | -0.25 |
